Results from different studies.
Every numbered part comes from another study and shows a few of its results, in no order.

Set 1
Target: Histone acetyltransferase KAT6A, winged helix 2, GST fusion (KAT6A, Homo sapiens, UniProt Q92794, residues 85-181)
Method: protein binding microarray
Molecule type: double-stranded DNA, one strand shown
Medium: in vitro
Concentration: not given
Setting: 8-mer, flanks averaged, mean of 2 arrays, mostly near background
Reference: not given
Direction: higher = stronger binding
Construct (chain): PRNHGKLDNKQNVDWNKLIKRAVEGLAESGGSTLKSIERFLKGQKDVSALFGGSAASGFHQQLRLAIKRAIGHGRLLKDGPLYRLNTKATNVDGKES
`ACCTTGGA` has an E-score of -0.177.
`AATTGGTC` has an E-score of 0.0745.
For `ACTTCATG`, the E-score was -0.0985.
The E-score of `AGTCAGGA` is reported as -0.0376.
With `AGACGGTA` the E-score was -0.0315.
With `AAGTTGCT` the E-score was -0.0605.
With `CCTATGCA` the E-score was -0.00113.
`CGTATAGC` gave an E-score of 0.113.
For `CTTTGTCC`, the E-score was -0.073.
The E-score of `GACACGTA` is reported as -0.16.
For `CTAGTCGC`, the E-score was -0.0912.
With `GTCGGCAC` the E-score was 0.0825.
`AGGGTTGC` has an E-score of 0.0323.
The E-score of `AAGTCGCC` is reported as -0.0297.
For `CCAGGTCC`, the E-score was 0.0685.
`GAGTGGAA` has an E-score of 0.00572.
With `ACTTATTA` the E-score was -0.134.
The E-score of `ACTTCGAA` is reported as -0.0539.

Set 2
Target: Sal-like protein 4, full length isoform B (SALL4, Homo sapiens, UniProt Q9UJQ4-2, residues 1-616)
Method: universal PBM
Molecule type: double-stranded DNA, one strand shown
Medium: in vitro
Concentration: not given
Setting: 8-mer, flanks averaged, mean of replicates
Direction: higher = stronger binding
Construct (chain): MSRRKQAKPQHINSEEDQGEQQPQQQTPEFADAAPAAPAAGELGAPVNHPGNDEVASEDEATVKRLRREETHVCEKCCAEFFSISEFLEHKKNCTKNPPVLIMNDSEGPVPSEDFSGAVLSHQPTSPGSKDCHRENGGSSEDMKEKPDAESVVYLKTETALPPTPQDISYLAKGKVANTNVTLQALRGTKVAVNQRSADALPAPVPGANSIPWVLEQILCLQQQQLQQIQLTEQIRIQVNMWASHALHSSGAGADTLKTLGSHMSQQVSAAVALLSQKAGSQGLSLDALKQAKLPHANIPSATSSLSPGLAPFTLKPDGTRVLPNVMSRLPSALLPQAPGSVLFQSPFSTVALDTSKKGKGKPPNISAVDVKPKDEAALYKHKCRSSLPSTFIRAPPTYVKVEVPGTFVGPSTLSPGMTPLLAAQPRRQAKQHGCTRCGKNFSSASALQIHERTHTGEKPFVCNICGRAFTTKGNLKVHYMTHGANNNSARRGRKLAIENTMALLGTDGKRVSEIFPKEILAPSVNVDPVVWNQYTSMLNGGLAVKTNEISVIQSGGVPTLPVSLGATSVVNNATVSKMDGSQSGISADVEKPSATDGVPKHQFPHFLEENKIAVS
`CGCGGGCC` gave an E-score of -0.364.
The E-score of `CACACCTG` is reported as -0.172.
For `GCCATAGA`, the E-score was -0.108.
`CATGGTGG` has an E-score of -0.272.
The E-score of `CACATGAC` is reported as -0.0103.
`CAAGCGGA` gave an E-score of -0.26.
`GAAATGCA` has an E-score of 0.0372.
`AACAAGCC` gave an E-score of -0.0552.
For `CCAAAGAA`, the E-score was 0.0414.
`ACATTTGA` gave an E-score of 0.241.
For `AGTATCAA`, the E-score was 0.0987.
For `ATTAGATG`, the E-score was 0.314.
For `GCAAGGGA`, the E-score was -0.12.
With `AACGCAAA` the E-score was 0.0904.
The E-score of `GTCTACTA` is reported as 0.129.
The E-score of `GAAATATA` is reported as 0.436.
With `AAGGCTAT` the E-score was 0.0658.
With `CACTAATG` the E-score was 0.0941.

Set 3
Target: RNA binding protein fox-1 homolog 2, RRM domain, GST-SBP tag (RBFOX2, Homo sapiens, UniProt O43251-10, residues 100-194)
Method: RNA Bind-n-Seq
Molecule type: RNA
Medium: in vitro
Concentration: 365 nM
Setting: natural RNA segment, single round, ends assumed
Reference: no-protein control
Direction: higher = stronger binding
Residues (chain): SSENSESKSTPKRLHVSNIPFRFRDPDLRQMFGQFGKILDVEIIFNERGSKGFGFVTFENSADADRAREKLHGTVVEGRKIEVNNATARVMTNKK
`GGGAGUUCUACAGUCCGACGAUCUCCCUACCCCUGCUCCCCUCAGACAUGGGGCAGGAAACAGCAGGUGCGCUGGGCAGGAGGAAGGCAUGUGCUUCCUCCCCAGCCACCACCCCUCCCACAGCACCCAGCCUUGGAAUUCUCGGGUGCCAA` — result for “RBNS enrichment (R)”: 17.
`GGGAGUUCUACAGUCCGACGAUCUGUUUUUAUACUUGGAAGUGGUGAAUUAUUUUAUAUAAAGUCAUUUAAAUAUCUAUUUAAAAGAUAGGAAGCUGCUUAUAUAUUUAAUAAUAAAAGAAGUGCACAAGCUGUGGAAUUCUCGGGUGCCAA`: “RBNS enrichment (R)” 0.761.
For `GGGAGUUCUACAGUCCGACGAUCCCGCUCCCUUCUCCCCACCCAAACCCCACACUGCAGCAGGCAGGCCAGGGCGGGUGUGGGGCUGGCUGAGAGGAUCAAUUUUAGAGUCUUUAUUCAGGGAGUGAGACAUGUGGAAUUCUCGGGUGCCAA`, “RBNS enrichment (R)” read 0.321.
`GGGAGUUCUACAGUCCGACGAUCGAAUAUGUCACAUAAAGAAAAUGUGUUUAGAAUACUGGUUUUCUAUUUACGCAUGAUAUUUUCCUAAGUAAAAUUGCCAAGUGGACUUGGAAGUCCAGAAAGGAAAAUAAUGGAAUUCUCGGGUGCCAA`: “RBNS enrichment (R)” 3.34.
`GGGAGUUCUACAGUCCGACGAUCUAAUCAAUCAUGUACUUUAGUUUAAUGUAUAAAGAUCCUCUAGAAAAUGAUAAUAUUGUGUAUUAAGACAUUCCUUAAUUAGGACAAAAUGGCUGCUGUAUAUUUACUAUUGGAAUUCUCGGGUGCCAA`: “RBNS enrichment (R)” 0.577.
`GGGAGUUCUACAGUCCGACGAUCGCAAUCCCUAGCAGAACAUUGUUUCUGAGGAGGCAUAUGUGAGAUUGAUUUGUUGGUUCAUGCCAAGUGUGUUCCACAGGUUGACUUUGAAUGUGGACCUCUGAGCAUCCUGGAAUUCUCGGGUGCCAA`: “RBNS enrichment (R)” 0.304.
`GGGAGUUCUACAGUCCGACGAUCAUUGCCCUGCCAUCCAUGAAAACUGUUCUGGCACCAAAAGUAAUGACAAAUGUUAAGUGUAAUAAUAGAAAAGUAGAGCAAAGAGCCAUUCAGCUUCAGUCUUUACAUACUGGAAUUCUCGGGUGCCAA` — result for “RBNS enrichment (R)”: 0.323.
`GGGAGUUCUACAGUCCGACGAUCAGACUGUACAGCCACCCUCAGCUGCCAUCUUUGUCUUCCUGCUGCCACCUCAGGCAGCUGUUACUCAGCCUCCGUUACCUGCUGUAGACUGUCAGCAUCCUCACACAGCGUGGAAUUCUCGGGUGCCAA` — result for “RBNS enrichment (R)”: 0.843.
Under “RBNS enrichment (R)”, `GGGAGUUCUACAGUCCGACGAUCGGAGACCAGUUGAGCACAGUCUGUGAGCAGUGCCCUUCCUCUCCCACUUGUCAAGAUUUCCCCUUUAGCGUGCUUGCUCCUCACCCCACCUGUACCUCCCUAUGUCCCCAUGGAAUUCUCGGGUGCCAA` is recorded as 1.33.
For `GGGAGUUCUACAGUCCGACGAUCUAGUAGCCCUAGGAAGGAGCUGAGAUCACAAGGAUGACAUUGAAGGAGACAACGGGGCAGUGGCAGCAGGUCAGCAUAUUUAAUAAAGUUGGAGUUGCUACAAAACCUGAUGGAAUUCUCGGGUGCCAA`, “RBNS enrichment (R)” read 0.62.
`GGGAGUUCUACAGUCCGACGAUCGCUCAUCACCCUAGGUUCUACAGGAAAUACAGAGAUGAACAACUUUGCCUUCAAAAAUGUGCUGCCUAGAAACAGACCUGCAUUCAACCAACUGUAAUGCAGGAUUGGACUGGAAUUCUCGGGUGCCAA`: “RBNS enrichment (R)” 0.268.
`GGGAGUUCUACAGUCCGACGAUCGCCUGCUGCCAUACUGUAUGUAGGAAAGUGUUCUGUGGCUGCUUUGUGUCAAGAAAAGAGCAGUCACUCUCAGAAUCUUGAUUCCCCAUCAGCCAAAGCAAAAGAUGGCUUGGAAUUCUCGGGUGCCAA`: “RBNS enrichment (R)” 0.444.

Set 4
Target: RING finger protein unkempt homolog, zinc fingers 1-6, GST-SBP tag (UNK, Homo sapiens, UniProt Q9C0B0, residues 30-357)
Method: RNA Bind-n-Seq
Molecule type: RNA
Medium: in vitro
Concentration: not given
Setting: RNA with constant flanks, human-mouse chimeric sites, ends assumed
Reference: input RNA pool
Direction: higher = stronger binding
Construct (chain): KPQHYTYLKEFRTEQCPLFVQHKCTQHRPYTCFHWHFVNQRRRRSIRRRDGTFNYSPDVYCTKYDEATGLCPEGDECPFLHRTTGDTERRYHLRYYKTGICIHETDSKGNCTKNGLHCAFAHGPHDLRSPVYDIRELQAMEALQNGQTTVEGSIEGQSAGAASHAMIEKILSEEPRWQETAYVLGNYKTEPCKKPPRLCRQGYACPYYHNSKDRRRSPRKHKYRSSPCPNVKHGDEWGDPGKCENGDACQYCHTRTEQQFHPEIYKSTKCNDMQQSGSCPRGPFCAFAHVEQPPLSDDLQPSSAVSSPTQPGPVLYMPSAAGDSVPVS
For `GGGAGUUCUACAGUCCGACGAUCCAGUCCCCGUGUCCCAGGGGACAAUGUUGUGAACAAAUCGAAGACAUGGACCCUCUAUUGUAGUUCUUGAUUCUCGAAAUGUGCUAUUAUUGUUUGUCUUUUUUUUUUUUUUUUUAAAGACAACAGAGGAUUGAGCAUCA`, the bound/input enrichment was 1.15 ratio.
For `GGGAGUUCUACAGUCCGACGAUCAUGGAACAUUUCGAUGCGUCACUCAGUACCUAUUUCAAGGCCUUCCUGGGCCCCCGAGAUACAAGAGUCAAAGGAUGGUUUCUUCUGGACAAUUACAUACCCACAUUUGUCUGUUCUGUUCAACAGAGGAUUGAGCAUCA`, the bound/input enrichment was 0.0977 ratio.
`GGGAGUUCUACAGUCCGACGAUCUCGGAUGCUGUGCUGGGUCACUUUCCGUAUCCAGAUCCUUCACAGUGGACAGAUGAAGAACUGGGAAUCCCUCCUGAUGACGAGGACUGACACUGUAAACUCUCUGGCACUCUGUACGCACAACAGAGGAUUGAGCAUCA` gave a bound/input enrichment of 0.469 ratio.
For `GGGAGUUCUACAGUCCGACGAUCAGAAUCUGUGACUGGCUUUACUUAAUUGGUCAUUGAUAGCUUAACAAACAUGGAGAUAAGAUUAGAAAUCUUGACAUCAACAGGUAUUAAGCAGAAAAAACCCUGGCCACGUGUCUCCUGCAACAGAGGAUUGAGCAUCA`, the bound/input enrichment was 0.14 ratio.
With `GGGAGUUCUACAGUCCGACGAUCGCUGAAAAUGAAGAAGAGGCAGCUGAUGUCUGGUACAACCUGGGGCACAUAGCUGUGGGAAUCGGAGAUACAAAUUUGGCCCAUCAGUGCUUCAGGCUGGCCCUGGUCCACAACAACCACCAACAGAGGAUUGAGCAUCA` the bound/input enrichment was 0.165 ratio.
The bound/input enrichment of `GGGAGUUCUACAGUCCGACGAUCGCUCUUGGGAAUGUAAUCAGCGCCUUGGGGGACAAGAGCAAGAGAGCCACCCAUGUCCCUUACAGAGACUCUAAGCUGACAAGACUCUUGCAGGAUUCCCUCGGGGGUAAUAGCCAAACCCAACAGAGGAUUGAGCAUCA` is reported as 0.129 ratio.
With `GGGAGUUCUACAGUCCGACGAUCUUAAUCCCCUUUACUGCUCCCCCACUUGUCAUGCUGAUAACAAAGUCUUAUAUCCCCGUCCUAGCUUUCACUCAGAUGGCUUAUGGAGCCGGUUUCCUAUCUUUCUUGGGAGGGAUCAGACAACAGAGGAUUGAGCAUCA` the bound/input enrichment was 0.173 ratio.
With `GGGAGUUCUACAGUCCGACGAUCGAAACAUUUAAAUUUAAAGAAGCUGUUGUUCUAGGAAGUACGGACUUUCUAGAAGAUGAUAUAGAGAAAAUUGUAGAAGAACUGGGGAAAGAAUACAAAGGCAAUGCCUACCAUCUGAUGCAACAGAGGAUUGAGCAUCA` the bound/input enrichment was 1.13 ratio.
With `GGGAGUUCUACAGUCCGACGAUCUGACAAGGGCACUGCAGGGCCAUGCCUUUCCUUGACAUACAGAAAAAGCUGGGCAUCAGCCUGGACCGGCACUUUAUGUUCCUAAGCGCAGAACAGCCCUAUAAGAACGCCGCUCGGUGCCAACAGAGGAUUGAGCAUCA` the bound/input enrichment was 0.061 ratio.
`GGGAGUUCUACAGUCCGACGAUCGACUUUGGGACUGGUCCUCGCAACGCAGCCUACUAUAGCCCUCAUGGACAUAUAUUAGUGCUGGCUGGAUUUGGAAAUCUGAGGGGACAAAUGGAAGUAUGGGAUGUUAAAAACUACAAGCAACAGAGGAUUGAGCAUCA` gave a bound/input enrichment of 0.433 ratio.
For `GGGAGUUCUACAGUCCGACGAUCACACAAUAUGAGACCAACAGCAUGGACUUCAAAGUCGGGGCGGAUGGGACAGUCUUCGCCACCCGGGAGCUGCAGGUCCCCUCCGAGCAGGUGGCGUUCACGGUGACUGCAUGGGACAGCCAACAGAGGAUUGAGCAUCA`, the bound/input enrichment was 0.249 ratio.

A few entries again (set 1):
`CGTATAGC` gave an E-score of 0.113.
For `CTTTGTCC`, the E-score was -0.073.
The E-score of `GACACGTA` is reported as -0.16.
For `CTAGTCGC`, the E-score was -0.0912.
With `GTCGGCAC` the E-score was 0.0825.
`AGGGTTGC` has an E-score of 0.0323.
